Measurements collected from several papers.
Compare with care: the assays were run in different laboratories. ± gives the spread as reported.
Organism: Salmonella typhimurium

For `CNC(=O)c1c(N(C)N=O)ncn1C`, “revertant colonies per plate” read 19.3 ± 4 (mutagenicity, Ames plate incorporation; TA98; 150 µg/plate, without S9, methanol).
`CC(=O)N1CCC(C(=O)N2CCN3C(=O)c4cc(-c5ccccc5)ccc4NC(=O)C3C2)CC1` (stereo not drawn) — result for “revertants per plate”: 39.5 (TA98; 158 µg/plate, together with: rat liver S9).
`COc1cccc(-c2n[nH]c(SCc3ccccn3)n2)c1OC` — result for “revertant colonies per plate”: 103 (Ames test, plate incorporation; TA100; 2.0 mg/plate, with rat liver S9).
For `OC(CCN1CC=C(c2ccc(F)cc2)CC1)c1ccc(F)c2ccccc12` (stereo not drawn), the induction factor was 1 (genotoxicity, SOS/umu test; TA1535/pSK1002; 0.002 mg/mL, 4 h, without S9, full range).
For `COCCN(CCOC)N=O`, “revertant colonies per plate” read 150 ± 12 (mutagenicity, Ames plate incorporation; TA100; 5000 µg/plate, 3 d, without S9, methanol).
`Fc1ccc(C2=CCNCC2)cc1` gave an induction factor of 0.9 (genotoxicity, SOS/umu test; TA1535/pSK1002; 0.031 mg/mL, 4 h, with S9, full range).
With `Cc1cc(C(=O)NC(C)(C)COc2cccc3c2C(N)=NS(=O)(=O)N3)cc(C)n1` the revertant ratio was 1.3 (Ames test, confirmatory; TA1537; 1000 µg/plate; reference: solvent control).
`CC(C)N(N=O)C(C)C`: “revertant colonies per plate” 32.7 ± 5 (mutagenicity, Ames plate incorporation; TA1535; 500 µg/plate, without S9, methanol).
`O=[N+]([O-])c1ccc(N2CCN(CCC(O)c3ccc(F)cc3)CC2)c(C(F)(F)F)c1` (stereo not drawn) gave a survival of 80.4% (SOS/umu test; TA1535/pSK1002; 0.008 mg/mL, 4 h, with S9, full range).

For quick reference, copied from above:
For `CNC(=O)c1c(N(C)N=O)ncn1C`, “revertant colonies per plate” read 19.3 ± 4 (mutagenicity, Ames plate incorporation; TA98; 150 µg/plate, without S9, methanol).
